Published values gathered from unrelated publications.
SLCO1B3: Solute carrier organic anion transporter family member 1B3 (SLCO1B3, Homo sapiens, UniProt Q9NPD5)
Chain of UniProt Q9NPD5 (whole entry, looked up): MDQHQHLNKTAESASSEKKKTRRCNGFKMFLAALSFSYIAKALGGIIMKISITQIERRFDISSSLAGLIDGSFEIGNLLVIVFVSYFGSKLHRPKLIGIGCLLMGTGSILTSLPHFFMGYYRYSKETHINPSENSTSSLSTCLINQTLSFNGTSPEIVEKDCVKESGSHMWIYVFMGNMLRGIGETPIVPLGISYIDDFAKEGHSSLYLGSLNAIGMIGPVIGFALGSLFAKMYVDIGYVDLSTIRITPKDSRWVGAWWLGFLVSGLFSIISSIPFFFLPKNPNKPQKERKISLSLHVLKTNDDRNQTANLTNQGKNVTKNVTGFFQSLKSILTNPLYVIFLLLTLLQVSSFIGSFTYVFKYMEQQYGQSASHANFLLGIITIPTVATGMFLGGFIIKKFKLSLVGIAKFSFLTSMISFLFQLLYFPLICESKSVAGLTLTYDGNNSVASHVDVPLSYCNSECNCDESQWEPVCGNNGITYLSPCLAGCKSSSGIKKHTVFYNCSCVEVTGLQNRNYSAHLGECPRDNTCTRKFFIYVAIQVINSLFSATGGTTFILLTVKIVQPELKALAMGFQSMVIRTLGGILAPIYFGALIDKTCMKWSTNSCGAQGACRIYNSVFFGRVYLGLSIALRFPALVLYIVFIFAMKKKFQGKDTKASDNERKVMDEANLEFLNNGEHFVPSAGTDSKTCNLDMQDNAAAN
Tumor necrosis factor receptor superfamily member 9/Nectin-4: Tumor necrosis factor receptor superfamily member 9/Nectin-4 (Homo sapiens, UniProt Q07011+Q96NY8)
Chain of UniProt Q07011 (whole entry, looked up): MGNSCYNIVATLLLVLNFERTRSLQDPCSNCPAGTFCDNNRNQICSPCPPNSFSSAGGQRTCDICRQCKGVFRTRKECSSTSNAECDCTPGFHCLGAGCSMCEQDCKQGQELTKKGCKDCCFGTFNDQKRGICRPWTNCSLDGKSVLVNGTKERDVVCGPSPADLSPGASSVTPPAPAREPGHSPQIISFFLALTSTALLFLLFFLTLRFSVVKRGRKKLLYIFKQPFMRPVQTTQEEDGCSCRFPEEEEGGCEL
Chain of UniProt Q96NY8 (whole entry, looked up): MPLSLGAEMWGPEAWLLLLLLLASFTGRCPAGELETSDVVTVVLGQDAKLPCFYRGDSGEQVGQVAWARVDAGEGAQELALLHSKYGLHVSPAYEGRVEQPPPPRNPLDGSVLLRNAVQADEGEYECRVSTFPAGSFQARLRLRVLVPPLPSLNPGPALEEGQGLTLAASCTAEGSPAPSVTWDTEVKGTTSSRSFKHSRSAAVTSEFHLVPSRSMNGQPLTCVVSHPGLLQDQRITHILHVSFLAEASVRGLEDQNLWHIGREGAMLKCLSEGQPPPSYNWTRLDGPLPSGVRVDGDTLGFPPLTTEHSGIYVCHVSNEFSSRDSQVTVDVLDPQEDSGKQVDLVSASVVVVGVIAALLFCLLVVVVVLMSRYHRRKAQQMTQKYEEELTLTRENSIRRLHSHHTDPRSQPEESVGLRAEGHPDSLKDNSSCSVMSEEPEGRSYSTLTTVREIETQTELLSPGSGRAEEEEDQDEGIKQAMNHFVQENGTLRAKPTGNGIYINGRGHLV
ABCG2: Broad substrate specificity ATP-binding cassette transporter ABCG2 (ABCG2, Homo sapiens, UniProt Q9UNQ0)
Chain of UniProt Q9UNQ0 (whole entry, looked up): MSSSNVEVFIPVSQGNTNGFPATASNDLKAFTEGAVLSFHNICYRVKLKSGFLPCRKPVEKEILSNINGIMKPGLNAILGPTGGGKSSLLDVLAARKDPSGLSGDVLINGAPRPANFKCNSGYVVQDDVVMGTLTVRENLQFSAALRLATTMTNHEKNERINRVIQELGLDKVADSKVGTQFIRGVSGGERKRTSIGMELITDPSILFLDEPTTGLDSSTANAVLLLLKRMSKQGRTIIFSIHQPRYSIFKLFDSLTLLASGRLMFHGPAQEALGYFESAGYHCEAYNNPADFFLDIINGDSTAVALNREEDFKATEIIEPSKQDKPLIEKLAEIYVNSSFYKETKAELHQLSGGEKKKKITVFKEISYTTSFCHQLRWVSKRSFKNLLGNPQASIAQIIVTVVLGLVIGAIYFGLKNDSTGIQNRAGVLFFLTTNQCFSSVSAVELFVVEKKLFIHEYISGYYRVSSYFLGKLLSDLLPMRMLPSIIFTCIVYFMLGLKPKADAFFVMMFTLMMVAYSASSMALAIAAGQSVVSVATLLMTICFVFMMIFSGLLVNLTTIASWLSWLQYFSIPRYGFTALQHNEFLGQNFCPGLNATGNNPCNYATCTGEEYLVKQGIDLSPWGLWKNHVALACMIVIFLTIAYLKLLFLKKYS
Chain of UniProt P33261 (whole entry, looked up): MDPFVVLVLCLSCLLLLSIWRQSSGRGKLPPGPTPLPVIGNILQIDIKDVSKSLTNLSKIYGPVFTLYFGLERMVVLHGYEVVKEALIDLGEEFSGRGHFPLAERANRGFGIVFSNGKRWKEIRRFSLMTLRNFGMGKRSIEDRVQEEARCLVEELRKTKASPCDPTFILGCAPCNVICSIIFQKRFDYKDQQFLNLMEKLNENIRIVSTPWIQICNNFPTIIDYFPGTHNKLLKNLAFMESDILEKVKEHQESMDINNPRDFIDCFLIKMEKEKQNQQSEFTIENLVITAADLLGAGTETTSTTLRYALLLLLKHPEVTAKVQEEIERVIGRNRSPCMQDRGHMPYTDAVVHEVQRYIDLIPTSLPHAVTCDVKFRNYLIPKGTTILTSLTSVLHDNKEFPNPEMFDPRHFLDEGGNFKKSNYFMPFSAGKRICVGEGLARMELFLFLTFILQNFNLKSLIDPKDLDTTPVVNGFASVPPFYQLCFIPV
Chain of UniProt O60674 (whole entry, looked up): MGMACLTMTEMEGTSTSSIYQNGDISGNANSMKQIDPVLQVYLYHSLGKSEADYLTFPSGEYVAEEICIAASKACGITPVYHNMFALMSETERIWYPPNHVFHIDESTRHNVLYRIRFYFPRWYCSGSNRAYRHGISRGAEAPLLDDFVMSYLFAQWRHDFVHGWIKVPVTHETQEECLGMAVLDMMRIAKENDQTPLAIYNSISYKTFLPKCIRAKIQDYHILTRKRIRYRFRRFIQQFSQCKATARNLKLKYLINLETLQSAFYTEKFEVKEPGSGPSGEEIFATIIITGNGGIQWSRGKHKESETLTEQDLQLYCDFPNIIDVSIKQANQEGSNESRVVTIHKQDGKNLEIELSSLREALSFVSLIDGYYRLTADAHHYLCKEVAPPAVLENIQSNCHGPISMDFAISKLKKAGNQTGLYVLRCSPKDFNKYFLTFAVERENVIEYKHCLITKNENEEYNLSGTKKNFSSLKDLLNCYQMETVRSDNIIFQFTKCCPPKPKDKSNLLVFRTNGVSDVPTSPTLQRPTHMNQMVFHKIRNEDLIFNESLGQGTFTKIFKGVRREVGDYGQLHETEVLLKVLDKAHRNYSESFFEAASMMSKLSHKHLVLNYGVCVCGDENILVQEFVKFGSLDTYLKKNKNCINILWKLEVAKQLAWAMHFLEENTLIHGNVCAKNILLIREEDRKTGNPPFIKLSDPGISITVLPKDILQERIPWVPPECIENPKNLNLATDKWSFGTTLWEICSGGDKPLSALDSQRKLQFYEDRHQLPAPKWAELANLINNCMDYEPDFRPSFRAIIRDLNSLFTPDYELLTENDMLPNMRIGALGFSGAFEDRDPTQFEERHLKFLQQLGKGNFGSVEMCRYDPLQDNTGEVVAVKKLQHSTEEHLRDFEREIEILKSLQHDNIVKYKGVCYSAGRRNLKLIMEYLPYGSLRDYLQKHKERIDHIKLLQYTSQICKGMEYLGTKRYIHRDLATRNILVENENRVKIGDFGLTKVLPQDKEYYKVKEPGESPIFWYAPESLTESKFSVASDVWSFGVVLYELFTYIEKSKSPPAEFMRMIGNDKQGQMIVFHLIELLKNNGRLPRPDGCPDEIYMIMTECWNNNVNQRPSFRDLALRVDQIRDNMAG

| SMILES | target or system | test | test system | setting | scale | measurement | result |
| --- | --- | --- | --- | --- | --- | --- | --- |
| O=C(Nc1cccc(Cl)c1)C1CCCN(Cc2cccc(-c3ccc(F)cc3F)c2)C1 (stereo not shown) | Vero-E6 | CellTiter-Glo ATP |  | concentration not given, 72 h, retest 8-point duplicates | relative to: DMSO 0%, hyamine -100%, more negative, more toxic | cytotoxicity efficacy | 0% |
| NC(=O)c1nc(F)c[nH]c1=O | SLCO1B3 | transport, inhibitor | transiently transfected cells | 100 µM, 10 (unit not given), with: CCK-8 |  | inhibition | 58.1% |
| CCCC[C@@H]1NC(=O)[C@H](Cc2ccc(O)cc2)NC(=O)[C@@H]2CCCN2C(=O)[C@H](CC(=O)O)NC(=O)[C@H](C)NC(=O)[C@H](Cc2ccccc2)NC(=O)[C@@H]2CSCCC(=O)N3CN(CN(C3)C(=O)CCSC[C@H](NC(C)=O)C(=O)N[C@@H](CC(C)(C)C)C(=O)N[C@@H](CCC(=O)O)C(=O)N[C@@H](CCC(=O)O)C(=O)N[C@H](CCCCNC(=O)CCc3cn(CCOCCOCCOCCOCCOCCC(=O)N[C@H]4CSCCC(=O)N5CN6CN(C5)C(=O)CCSC[C@H](NC(=O)[C@@H](CC(=O)O)NC(=O)[C@H](Cc5cccc7ccccc57)NC(=O)[C@@H]5CCCN5C4=O)C(=O)N[C@@H](CCSC)C(=O)N[C@@H](CCCCNC(=N)N)C(=O)N[C@@H](CC(=O)O)C(=O)N[C@@H](Cc4c[nH]c5ccccc45)C(=O)N[C@@H](CO)C(=O)N[C@@H]([C@@H](C)O)C(=O)N4CCC[C@H]4C(=O)N4C[C@H](O)C[C@H]4C(=O)N[C@@H](Cc4c[nH]c5ccccc45)C(=O)N[C@H](C(N)=O)CSCCC6=O)nn3)C(=O)N3CCC[C@H]3C(=O)N[C@@H](Cc3ccc(O)cc3)C(=O)N2)C(=O)CCSC[C@@H](C(N)=O)NC1=O | Tumor necrosis factor receptor superfamily member 9/Nectin-4 | reporter gene, agonist, luciferase reporter | CD137 Jurkat reporter with HT-1376 | 6 h, geometric mean | relative to: wells without compound | Emax | 44 fold |
| Cn1nccc1[C@]1(CNC(=O)c2ccc(F)c(F)c2-c2ccc(C(F)(F)F)cc2)NC(=O)NC1=O | CYP1A2 (human) |  | human liver microsomes | with: phenacetin | no inhibition up to value | IC50 | > 20 µM |
| O=C(Nc1cccnn1)N1CCC(=Cc2cccc(Oc3ccc(C(F)(F)F)cn3)c2)CC1 | Cytochrome P450 2C19 (CYP2C19, Homo sapiens, UniProt P33261) | enzyme activity, inhibitor |  | 10 µM, with: 3-cyano-7-ethoxycoumarin substrate |  | inhibition | 64% |
| CCCC[C@@H]1NC(=O)[C@H](Cc2ccc(O)cc2)NC(=O)[C@@H]2CCCN2C(=O)[C@H](CC(=O)O)NC(=O)[C@H](C)NC(=O)[C@H](Cc2ccccc2)NC(=O)[C@@H]2CSCCC(=O)N3CN(CN(C3)C(=O)CCSC[C@@H](C(=O)N[C@@H](C)C(N)=O)NC1=O)C(=O)CCSC[C@H](NC(C)=O)C(=O)N[C@@H](CC(C)(C)C)C(=O)N1CCC[C@H]1C(=O)N[C@@H](CCC(=O)O)C(=O)N[C@H](CCCCNC(=O)CCc1cn(CCOCCOCCOCCOCCOCCC(=O)N[C@H]3CSCCC(=O)N4CN5CN(C4)C(=O)CCSC[C@H](NC(=O)CNC(=O)[C@H](Cc4ccccc4)NC(=O)[C@@H]4CCCN4C3=O)C(=O)N[C@@H](CCSC)C(=O)N[C@@H](CCCCNC(=N)N)C(=O)N[C@@H](CC(=O)O)C(=O)N[C@@H](Cc3c[nH]c4ccccc34)C(=O)N[C@@H](CO)C(=O)N[C@@H]([C@@H](C)O)C(=O)N3CCC[C@H]3C(=O)N3C[C@H](O)C[C@H]3C(=O)N[C@@H](Cc3c[nH]c4ccccc34)C(=O)N[C@H](C(N)=O)CSCCC5=O)nn1)C(=O)N1CCC[C@H]1C(=O)N[C@@H](Cc1ccc(O)cc1)C(=O)N2 | Tumor necrosis factor receptor superfamily member 9/Nectin-4 | reporter gene, agonist, luciferase reporter | CD137 Jurkat reporter with HT-1376 | 6 h, geometric mean | relative to: wells without compound | Emax | 33 fold |
| CC1(C)[C@H](C=C(Cl)Cl)[C@H]1C(=O)OCc1cccc(Oc2ccccc2)c1 | CES2 human cytosolic |  |  | 0.1 µM, age 5 years |  | enzyme contribution | 8.87% |
| CC(C)=CC1C(C(=O)OCc2coc(Cc3ccccc3)c2)C1(C)C (stereo not shown) | ABCG2 | inhibition, inhibitor |  | 0.03 to 100 µM, with: sulfasalazine 10 µM |  | BCRP ATPase activity | inhibited |
| CC1(C)[C@H](C(=O)O[C@H](C#N)c2cccc(Oc3ccccc3)c2)[C@@H]1C=C(Br)Br | CES2 human cytosolic |  |  | 0.1 µM, age 6 months |  | enzyme contribution | 0.38% |
| COc1ccc2cc1Oc1ccc(cc1)C[C@H]1c3cc(c(OC)cc3CCN1C)Oc1c(OC)c(OC)cc3c1[C@H](C2)N(C)CC3 | SLCO1B3 | transport, inhibitor |  | 10 µM, with: CCK |  | inhibition | 24.6% |
| C[C@H]1CN(c2n[nH]c3nc(N[C@H]4CC[C@H](NS(=O)(=O)CCC(F)(F)F)CC4)ncc23)CCO1 | Tyrosine-protein kinase JAK2 (JAK2, Homo sapiens, UniProt O60674) | inhibitor, Kinobeads competition profiling |  | 0.032 µM | relative to: vehicle | relative abundance | 0.98 |
| CCN(CCO)CCCC(C)Nc1ccnc2cc(Cl)ccc12 (stereo not shown) | ABCG2 | transport, inhibitor |  | 100 µM, 5 (unit not given), pH 7, with: CCK-8 |  | inhibition | 6.3% |
| Cc1ccccc1CN1C(=O)c2ccccc2Sc2ccc(C(=O)NCCCN3CCOCC3)cc21 | Vero-E6 | CellTiter-Glo ATP |  | 72 h, first round 5-point | relative to: DMSO 0%, hyamine -100%, more negative, more toxic | maximum response | -9.96% |

Some of these lines once more:
| SMILES | target or system | test | test system | setting | scale | measurement | result |
| --- | --- | --- | --- | --- | --- | --- | --- |
| NC(=O)c1nc(F)c[nH]c1=O | SLCO1B3 | transport, inhibitor | transiently transfected cells | 100 µM, 10 (unit not given), with: CCK-8 |  | inhibition | 58.1% |
| CCCC[C@@H]1NC(=O)[C@H](Cc2ccc(O)cc2)NC(=O)[C@@H]2CCCN2C(=O)[C@H](CC(=O)O)NC(=O)[C@H](C)NC(=O)[C@H](Cc2ccccc2)NC(=O)[C@@H]2CSCCC(=O)N3CN(CN(C3)C(=O)CCSC[C@H](NC(C)=O)C(=O)N[C@@H](CC(C)(C)C)C(=O)N[C@@H](CCC(=O)O)C(=O)N[C@@H](CCC(=O)O)C(=O)N[C@H](CCCCNC(=O)CCc3cn(CCOCCOCCOCCOCCOCCC(=O)N[C@H]4CSCCC(=O)N5CN6CN(C5)C(=O)CCSC[C@H](NC(=O)[C@@H](CC(=O)O)NC(=O)[C@H](Cc5cccc7ccccc57)NC(=O)[C@@H]5CCCN5C4=O)C(=O)N[C@@H](CCSC)C(=O)N[C@@H](CCCCNC(=N)N)C(=O)N[C@@H](CC(=O)O)C(=O)N[C@@H](Cc4c[nH]c5ccccc45)C(=O)N[C@@H](CO)C(=O)N[C@@H]([C@@H](C)O)C(=O)N4CCC[C@H]4C(=O)N4C[C@H](O)C[C@H]4C(=O)N[C@@H](Cc4c[nH]c5ccccc45)C(=O)N[C@H](C(N)=O)CSCCC6=O)nn3)C(=O)N3CCC[C@H]3C(=O)N[C@@H](Cc3ccc(O)cc3)C(=O)N2)C(=O)CCSC[C@@H](C(N)=O)NC1=O | Tumor necrosis factor receptor superfamily member 9/Nectin-4 | reporter gene, agonist, luciferase reporter | CD137 Jurkat reporter with HT-1376 | 6 h, geometric mean | relative to: wells without compound | Emax | 44 fold |
